Experimental data of several laboratories.
Numbered parts are unrelated; each lists some results of a single study. Positions count from the first letter of the parent shown.

Sample 1 — method: EMSA with sequencing; form: double-stranded DNA, one strand shown; sample: in vitro; concentration: 10 and 20 nM; reference: negative control set to 0; direction: higher = stronger binding; quantity: normalised bound fraction
Target: Hepatocyte nuclear factor 3-alpha (Foxa1, Mus musculus, UniProt P35582, residues 1-468, full length assumed)
UniProt P35582, sequence (whole entry, looked up): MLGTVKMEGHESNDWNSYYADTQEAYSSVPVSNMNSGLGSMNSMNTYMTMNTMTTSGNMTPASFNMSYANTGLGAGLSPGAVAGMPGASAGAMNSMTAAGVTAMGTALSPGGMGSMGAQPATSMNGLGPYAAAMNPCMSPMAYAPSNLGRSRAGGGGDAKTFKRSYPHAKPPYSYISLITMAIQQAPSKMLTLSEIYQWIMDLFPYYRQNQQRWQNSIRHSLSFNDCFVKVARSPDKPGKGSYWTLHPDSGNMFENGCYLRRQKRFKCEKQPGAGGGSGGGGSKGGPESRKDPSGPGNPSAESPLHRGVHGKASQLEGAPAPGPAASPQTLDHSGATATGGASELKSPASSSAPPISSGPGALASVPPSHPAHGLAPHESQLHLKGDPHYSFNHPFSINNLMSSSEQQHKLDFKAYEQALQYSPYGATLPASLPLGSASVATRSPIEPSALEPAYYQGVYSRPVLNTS
Notes: whole designed probe, mean of two concentrations, ends assumed
Constant ends, left off below: GTGAGCGGTGCCCATTGATGGGGAAC … TTTCACTGGGATCGTGGGGAC
CAAAATGTGTTCACCTAAAGAGTATTATTTGTAAAATGCTTCGTGTTTTCTCCCTTTATGCTGACATGTAATGCTGACTCATAAGGGACCTTGCTATTTACACAAGCAGCTTTCCTATGTAAATGAATGCAAGTGACCTACTTAGTGAATACCACCAAATAAAGCAATGATTCCAGAAATCAACCCATAAGTA: 0.426 ratio
AGAGGTTCTGCCTTATCAGAGTCCCTGACCCACAGTGAGAAATTAATACACATATTTTTGAATAAATTTTGAATAAGTAACTGGGGATTTAAGTAAACAAGAAATTACCCTATAGTGAGAGAAGAGTTTTAACATGTGGTGAGTGGTACAAAGTAGCACACCCAAGGTCGTGGGTTAATGACTTCCTTCCTTG: 0.395 ratio
ATTTGGGACATTTGAAACTGAAATAACTGATCACTATAATTTTTCTTTCAATGTTAATCTAGCATCATTTAGCATGGAGAAGCCATCTATCCTGTTTACTTTGACACTGGCCAAAGTTAGAGCCAGGACAAAAATAAGATAATTGTGTTTTTTTTCTCTTCAAAAAATATATATTCCTTCTGTTAGTCTCCAA: 0.179 ratio
TACACACGTATAAAAATGCTGCATGGGTGAGTGTGACATAGGCAAGCTCTTTAACAGGTGAAGCATCAGAGACTCCTGCTAACCTGGGAGAAAGCAATCTGCCACAGGGAGAGAACAGGGCCACGTGGAAGGGACCTGAGGACGACCTCTAGGAGTTGAGTGGGGTTTCCTGCTGACAGCTAGCAGGAAAATA: -0.0374 ratio
TTGAGTATAGACCCAATAATAGGATTGTTGGGTCAAATTTCTGTTTTTAGCTCTTTGAAGAAGCGCCACATTTCTTCCCACAATGGTTGAACTTATTTACACACCTGCCAAGACTGTGTAAGTGTTCTCTTTTCTCCACAACCTCTCCAGCATCTTTTATTTTTTGACTTTTTTTGTGTGTTCTACTTTGTTA: 0.21 ratio

Sample 2 — target: CCNA1, cyclin fold, Cln2 fusion (human); method: yeast growth competition, sequencing; sample: yeast; notes: weak parent motif; reference: not given; direction: higher = stronger binding; quantity: normalised enrichment score
Starting sequence: SCAPER docking peptide (human); SNARRSLNFGGST; partner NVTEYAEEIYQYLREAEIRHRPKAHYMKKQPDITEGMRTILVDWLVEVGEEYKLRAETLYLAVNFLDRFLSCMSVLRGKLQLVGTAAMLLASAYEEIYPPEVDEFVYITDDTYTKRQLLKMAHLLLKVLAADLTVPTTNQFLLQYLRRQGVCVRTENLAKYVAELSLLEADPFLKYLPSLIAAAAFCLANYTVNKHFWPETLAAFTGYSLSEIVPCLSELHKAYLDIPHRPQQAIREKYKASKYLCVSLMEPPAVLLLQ
T13P: 0.735
L7W: 0.0589
R4T: 0.403
F9Y: 0.211
A3C: 0.416
F9A: 0.24
R5K F9L: -0.0764
S6E: 0.331
S1C: 0.816
G11V: 0.95
R4K: 0.507
S12V: 0.353
R5N: 0.198
N8R: 0.26
F9C: 0.0893
S1H: 0.442
F9L: 0.202
A3M: 0.528
N8D: 0.431
G11I: 0.544
N8T: 0.607

Sample 3 — method: protein binding microarray; form: double-stranded DNA, one strand shown; sample: in vitro; concentration: not given; reference: not given; direction: higher = stronger binding; quantity: E-score
Target: Histone acetyltransferase KAT6A, both winged helices, GST fusion (KAT6A, Homo sapiens, UniProt Q92794, residues 1-181)
Notes: 8-mer, flanks averaged, mean of 2 arrays, mostly near background
Target sequence (chain): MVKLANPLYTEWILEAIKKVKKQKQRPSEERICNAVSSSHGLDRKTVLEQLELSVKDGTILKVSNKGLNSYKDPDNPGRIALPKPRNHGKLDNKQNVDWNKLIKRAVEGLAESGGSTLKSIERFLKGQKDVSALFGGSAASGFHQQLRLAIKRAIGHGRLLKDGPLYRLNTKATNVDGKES
CGTGAAGA: 0.0743
CCAATTAG: -0.0769
GCCTACCC: -0.0883
CTCGTTTA: -0.0908
ACCATGGT: -0.0809
AAGTTTAC: -0.0478
TAGTCAAA: -0.184
AACACCGA: 0.147
TAGAACAA: -0.131
AATAAATG: -0.143
CCTAATAA: -0.0819
TACAGCGA: -0.0923
GACTGTAA: -0.00601
AATTCGTG: -0.0765
ATCTCCCG: 0.211
ATGACCGG: 0.0553
ACTGTGGG: -0.151
ATACCCAT: -0.241
GCCCGCCC: 0.347
AGTAGTAG: -0.0686
CAGGTGTC: -0.026
GCATAGTA: 0.0605
GGATCAAA: -0.0823
AAGGACTT: -0.189
ATAAAAGA: 0.102

Sample 4 — method: RNA Bind-n-Seq; form: RNA; sample: in vitro; concentration: 365 nM; reference: no-protein control; direction: higher = stronger binding; quantity: RBNS enrichment (R)
Target: RNA binding protein fox-1 homolog 2, RRM domain, GST-SBP tag (RBFOX2, Homo sapiens, UniProt O43251-10, residues 100-194)
Notes: natural RNA segment, single round, ends assumed
Constant ends, left off below: GGGAGUUCUACAGUCCGACGAUC … UGGAAUUCUCGGGUGCCAA
Construct (chain): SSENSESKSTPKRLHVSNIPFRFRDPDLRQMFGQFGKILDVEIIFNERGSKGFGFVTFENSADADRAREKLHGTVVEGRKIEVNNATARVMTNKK
UGCUUUAUGUGGGCAUGAGAUGUCCCGUGAGGUCAUAGCUCCUUCUUUAGGAACUGCCUGUCCAUGAGAUGUCCCGUGAGGUCAUAGCUCCCUCUUUAGGGACUGUCUGU: 0.273
CCCUGCGCCCCAUUUGAAUACGGCCAGAGCCUGCUGGUUCACUUUGGGUAGAGCCGUGCCUCUUGGGCAGGCUCCCAUAGUGACCACGUCCCCACGAAUGGGAAAGCACG: 1.29
AGGACGUGGAGAGUGGCAGUGACGAAGGUCAUUUGUUUUCAGGGAGGUAGGGUUUAAAGACCCCCAGUGGGAGCAUUUAGAUGGCAGGCGGCUGCAAGGAGUCUGCAGUG: 0.637
CCUUUUCCUUCACCAUCUAUGGGAUAUUAGGGGCAGAAUCUGCCACUUCUUGCCCAGGAGUGUGCACAGAUGUAAGAUAAUUUUGUGAAAUAAUGUACCAUAGACUCUCA: 0.328
AGCCAUCCCACAAGUUCUAUACCAUAUUUUUAGUGACAGUUGAGGUUGUAGAUACACUUUAUAACAUUUUAUAGUUUAAAGAGCUUUAUUAAUGCAAUAAAUUAACUUUG: 0.477
UAAGUUUUUUUUAAAAAGCCUGUGUAUUUAUUUUAGAAUCAUGUUUUUCUGUAUAUUAACUUGGGGGAUAUCGUUAAUAUUUAGGAUAUAAGAUUUGAGGUCAGCCAUCU: 4.29
UGAGACCAGCCUGAUCCAUAGAGUGAGUUCCAGGACAGCCAGGUUUAUACAGAGAAACCCUGUCUUGAAAGAGCCAAAAAAAAAAAAAAAAAAUACAAGCCAGGAUUCUG: 0.693
GCUGAAUUAACUUUUCCAACAACCAAGUGGGUCAGCAAUUUGAUGCCCUUGAUAAAUAUCAACUUUAUUGAAUUGUACCUUUUAUUAAAAAGGAAAUACUUCAAAACCUU: 0.373

Repeated from above (sample 4):
UGCUUUAUGUGGGCAUGAGAUGUCCCGUGAGGUCAUAGCUCCUUCUUUAGGAACUGCCUGUCCAUGAGAUGUCCCGUGAGGUCAUAGCUCCCUCUUUAGGGACUGUCUGU: 0.273
AGGACGUGGAGAGUGGCAGUGACGAAGGUCAUUUGUUUUCAGGGAGGUAGGGUUUAAAGACCCCCAGUGGGAGCAUUUAGAUGGCAGGCGGCUGCAAGGAGUCUGCAGUG: 0.637
AGCCAUCCCACAAGUUCUAUACCAUAUUUUUAGUGACAGUUGAGGUUGUAGAUACACUUUAUAACAUUUUAUAGUUUAAAGAGCUUUAUUAAUGCAAUAAAUUAACUUUG: 0.477
CCUUUUCCUUCACCAUCUAUGGGAUAUUAGGGGCAGAAUCUGCCACUUCUUGCCCAGGAGUGUGCACAGAUGUAAGAUAAUUUUGUGAAAUAAUGUACCAUAGACUCUCA: 0.328
GCUGAAUUAACUUUUCCAACAACCAAGUGGGUCAGCAAUUUGAUGCCCUUGAUAAAUAUCAACUUUAUUGAAUUGUACCUUUUAUUAAAAAGGAAAUACUUCAAAACCUU: 0.373
CCCUGCGCCCCAUUUGAAUACGGCCAGAGCCUGCUGGUUCACUUUGGGUAGAGCCGUGCCUCUUGGGCAGGCUCCCAUAGUGACCACGUCCCCACGAAUGGGAAAGCACG: 1.29
UAAGUUUUUUUUAAAAAGCCUGUGUAUUUAUUUUAGAAUCAUGUUUUUCUGUAUAUUAACUUGGGGGAUAUCGUUAAUAUUUAGGAUAUAAGAUUUGAGGUCAGCCAUCU: 4.29
UGAGACCAGCCUGAUCCAUAGAGUGAGUUCCAGGACAGCCAGGUUUAUACAGAGAAACCCUGUCUUGAAAGAGCCAAAAAAAAAAAAAAAAAAUACAAGCCAGGAUUCUG: 0.693
